Experimental data of several laboratories.
Lines come from different studies, so protocols differ. ± marks the error that the study gave.
Cell line: human red blood cells

Structure (SMILES) | test | system | setting | how to read | endpoint | value
N=C(N)NCCC[C@H](NC(=O)[C@@H](N)CCCCN)C(=O)N[C@@H](Cc1c[nH]c2ccccc12)C(=O)N[C@@H](Cc1ccc(-c2ccccc2)cc1)C(=O)N[C@@H](CCC(N)=O)C(=O)N[C@@H](Cc1c[nH]c2ccccc12)C(=O)N[C@@H](Cc1ccc(-c2ccccc2)cc1)C(=O)N[C@@H](CCCCN)C(N)=O | haemolysis | – | 1 h, 37 °C | – | HC50 | > 200 µM
CC[C@H](C)[C@H](NC(=O)[C@H](CCCNC(=N)N)NC(=O)[C@@H](NC(=O)[C@H](CO)NC(=O)[C@@H](NC(=O)[C@@H](NC(=O)[C@H](CS)NC(=O)[C@H](CCCCN)NC(=O)[C@@H](N)CCCNC(=N)N)C(C)C)[C@@H](C)CC)C(C)C)C(=O)N[C@@H](CCCNC(=N)N)C(=O)N[C@@H](CC(N)=O)C(=O)N[C@@H](CCCNC(=N)N)C(=O)N[C@@H](CCCNC(=N)N)C(=O)N[C@@H](C)C(=O)N[C@@H](CC(N)=O)C(=O)N[C@H](C(=O)N[C@@H](CCCCN)C(=O)N[C@H](C(=O)N[C@@H](CC(C)C)C(=O)N[C@@H](CS)C(=O)N[C@@H](CC(N)=O)C(=O)O)[C@@H](C)CC)[C@@H](C)CC | – | – | 128 µg/mL, 3 h, 37 °C | baseline: Triton X-100 | hemolysis | 0.18%
C[C@H](NC(=O)[C@H](CCCNC(=N)N)NC(=O)[C@H](CCCNC(=N)N)NC(=O)[C@@H]1CCCN1C(=O)CNC(=O)[C@H](CCCNC(=N)N)NC(=O)[C@H](CCCNC(=N)N)NC(=O)CN)C(=O)N[C@@H](CC(N)=O)C(=O)N[C@@H](CCC(N)=O)C(=O)N[C@@H](CC(N)=O)C(=O)NCC(=O)N[C@H](C(=O)N[C@@H](CCCNC(=N)N)C(=O)N[C@@H](CCCNC(=N)N)C(=O)N[C@@H](CCCNC(=N)N)C(=O)N[C@@H](CCCNC(=N)N)C(=O)N[C@@H](CCCNC(=N)N)C(=O)N[C@@H](CCCNC(=N)N)C(=O)N[C@H](C(N)=O)[C@@H](C)O)[C@@H](C)O | – | – | 100 µM, 24 h, pH 7.4, 37 °C, 0.25% v/v erythrocytes | – | maximum haemolysis | 7.2 ± 0.4%
CC[C@H](C)[C@H](NC(=O)[C@H](Cc1ccccc1)NC(=O)[C@H](CC(=O)O)NC(=O)[C@H](CCCCN)NC(=O)[C@H](C)NC(=O)[C@H](CCCCN)NC(=O)[C@H](CC(N)=O)NC(=O)[C@H](CC(C)C)NC(=O)[C@H](Cc1c[nH]c2ccccc12)NC(=O)[C@H](CCC(=O)O)NC(=O)[C@H](CCCCN)NC(=O)[C@@H](NC(=O)CNC(=O)[C@H](C)N)[C@@H](C)O)C(=O)N[C@@H](CCCCN)C(=O)N[C@@H](CCC(=O)O)C(=O)N[C@@H](CCCCN)C(=O)NCC(=O)N1CCC[C@H]1C(=O)NCC(=O)N[C@@H](CCSC)C(=O)N[C@@H](CC(C)C)C(=O)N[C@@H](CO)C(=O)N[C@@H](C)C(=O)N[C@@H](C)C(=O)N[C@@H](C)C(=O)N[C@@H](CC(N)=O)C(=O)N[C@@H](C)C(=O)N[C@@H](C)C(=O)N[C@@H](CC(C)C)C(=O)N[C@@H](CC(N)=O)C(=O)O | – | – | 1 h | – | HC50 | > 250 µM
CC[C@H](C)[C@H](NC(=O)[C@H](CCCCN)NC(=O)[C@H](CCCCN)NC(=O)[C@H](Cc1ccccc1)NC(=O)[C@H](CC(C)C)NC(=O)[C@H](CCCCN)NC(=O)[C@H](Cc1c[nH]c2ccccc12)NC(=O)[C@@H](CCCCN)NC(C)=O)C(=O)NCC(=O)N[C@@H](C)C(=O)N[C@H](C(=O)N[C@@H](CC(C)C)C(=O)N[C@H](CCCCN)C(=O)N[C@H](C(=O)N[C@@H](CC(C)C)C(N)=O)C(C)C)C(C)C | – | – | 64 µM, 1 h, 37 °C | baseline: Triton X-100 | hemolysis | ~25%
CC[C@H](C)[C@H](NC(=O)[C@H](CCCN)NC(=O)[C@H](CC(N)=O)NC(=O)[C@H](CC(C)C)NC(=O)[C@H](Cc1ccccc1)NC(=O)[C@H](CCCN)NC(=O)[C@H](CCCCNC(=N)N)NC(=O)[C@H](CC(C)C)NC(=O)[C@H](CC(C)C)NC(=O)[C@H](CCCN)NC(=O)[C@H](CCCCNC(=N)N)NC(=O)[C@H](CC(C)C)NC(=O)CNC(C)=O)C(=O)N[C@@H](CCCN)C(=O)N[C@@H](CCCCNC(=N)N)C(N)=O | – | 5 % erythrocyte suspension | 1 h, 37 °C | – | HC50 | > 1000 µM
CC(C)C[C@@H]1NC(=O)[C@H](CC(C)C)NC(=O)[C@H](CCCCN)NC(=O)CSC[C@@H](C(=O)N[C@@H](CCCCN)C(N)=O)NC(=O)[C@H](CCCCN)NC(=O)[C@H](CC(C)C)NC(=O)[C@H](CCCCN)NC(=O)[C@@H]2CSCC(=O)N[C@@H](CCCCN)C(=O)N[C@@H](CC(C)C)C(=O)N[C@@H](CC(C)C)C(=O)N[C@@H](CCCCNC1=O)C(=O)N[C@@H](CCCCN)C(=O)N[C@@H](CC(C)C)C(=O)N[C@@H](CC(C)C)C(=O)N2 | – | – | 4 h, pH 7.4, room temperature | – | minimal haemolytic concentration | 250 µg/mL
CC[C@H](C)[C@H](NC(=O)[C@H](CCCCN)NC(=O)[C@H](CS)NC(=O)[C@H](CC(N)=O)NC(=O)[C@H](C)NC(=O)[C@H](CCCNC(=N)N)NC(=O)[C@H](CCCNC(=N)N)NC(=O)[C@H](CC(N)=O)NC(=O)[C@H](CCCNC(=N)N)NC(=O)[C@H](CCCNC(=N)N)NC(=O)[C@H](C)NC(=O)[C@H](CS)NC(=O)[C@H](CO)NC(=O)[C@@H](NC(=O)[C@@H](NC(=O)[C@H](CS)NC(=O)[C@H](CCCCN)NC(=O)[C@@H](N)CCCNC(=N)N)C(C)C)[C@@H](C)CC)C(=O)N[C@@H](CC(C)C)C(=O)N[C@@H](CS)C(=O)N[C@@H](CC(N)=O)C(=O)O | – | – | 128 µg/mL, 3 h, 37 °C | baseline: Triton X-100 | hemolysis | -0.15%
CC[C@H](C)[C@H](NC(=O)[C@H](CCCN)NC(=O)[C@H](CC(N)=O)NC(=O)[C@H](CC(C)C)NC(=O)[C@H](Cc1ccccc1)NC(=O)[C@H](CCCN)NC(=O)[C@H](CCCNC(=N)N)NC(=O)[C@H](CC(C)C)NC(=O)[C@H](CC(C)C)NC(=O)[C@H](CCCN)NC(=O)[C@H](CCCNC(=N)N)NC(=O)[C@H](CC(C)C)NC(=O)CNC(C)=O)C(=O)N[C@@H](CCCN)C(=O)N[C@@H](CCCNC(=N)N)C(N)=O | – | 5 % erythrocyte suspension | 1 h, 37 °C | – | HC50 | > 1000 µM
CC(C)C[C@@H]1NC(=O)[C@H](CC(C)C)NC(=O)[C@H](CCCCN)NC(=O)CSC[C@@H]2NC(=O)[C@H](CC(C)C)NC(=O)[C@H](CC(C)C)NC(=O)[C@H](CCCCN)NC(=O)[C@H](CCCCNC1=O)NC(=O)[C@H](CC(C)C)NC(=O)[C@H](CC(C)C)NC(=O)[C@H](CCCCN)NC(=O)CSC[C@@H](C(=O)N[C@@H](CCCCN)C(N)=O)NC(=O)[C@H](CCCCN)NC(=O)[C@H](CC(C)C)NC(=O)[C@H](CCCCN)NC2=O | – | – | 4 h, pH 7.4, room temperature | – | minimal haemolytic concentration | 125 µg/mL
CC[C@H](C)[C@H](NC(=O)[C@H](CCCCN)NC(=O)[C@H](CS)NC(=O)[C@H](C)NC(=O)[C@H](CC(N)=O)NC(=O)[C@H](CCCNC(=N)N)NC(=O)[C@H](CCCNC(=N)N)NC(=O)[C@H](CC(N)=O)NC(=O)[C@H](CCCNC(=N)N)NC(=O)[C@H](CCCNC(=N)N)NC(=O)[C@H](C)NC(=O)[C@H](CS)NC(=O)[C@H](CO)NC(=O)[C@@H](NC(=O)[C@@H](NC(=O)[C@H](CS)NC(=O)[C@H](CCCCN)NC(=O)[C@@H](N)CCCNC(=N)N)C(C)C)[C@@H](C)CC)C(=O)N[C@@H](CC(C)C)C(=O)N[C@@H](CS)C(=O)N[C@@H](CC(N)=O)C(=O)O | – | – | 128 µg/mL, 3 h, 37 °C | baseline: Triton X-100 | hemolysis | -0.21%
CC[C@H](C)[C@H](NC(=O)[C@H](CCCNC(=N)N)NC(=O)[C@H](CCCNC(=N)N)NC(=O)[C@H](CCCNC(=N)N)NC(=O)[C@@H](NC(=O)[C@@H](NC(=O)[C@H](C)NC(=O)[C@H](CCCNC(=N)N)NC(=O)[C@H](CCCNC(=N)N)NC(=O)[C@H](CCCNC(=N)N)NC(=O)[C@@H]1CCCN1C(=O)[C@@H](N)CCCNC(=N)N)[C@@H](C)O)[C@@H](C)O)C(=O)N[C@H](C(=O)N[C@H](C(=O)NCC(=O)N[C@H](C(=O)N[C@@H](CCCNC(=N)N)C(=O)N[C@@H](CCCNC(=N)N)C(=O)N[C@@H](CCCNC(=N)N)C(=O)N[C@@H](CCCNC(=N)N)C(N)=O)[C@@H](C)O)[C@@H](C)O)[C@@H](C)O | – | – | 100 µM, 24 h, pH 7.4, 37 °C, 0.25% v/v erythrocytes | – | maximum haemolysis | 12 ± 0.4%
CC(C)C[C@@H]1NC(=O)[C@H](CCCCN)NC(=O)CSC[C@@H](C(=O)N[C@@H](CCCCN)C(N)=O)NC(=O)[C@H](CC(C)C)NC(=O)[C@H](CC(C)C)NC(=O)[C@H](CC(C)C)NC(=O)[C@@H]2CSCC(=O)N[C@@H](CCCCN)C(=O)N[C@@H](CC(C)C)C(=O)N[C@@H](CCCCN)C(=O)N[C@@H](CCCCNC(=O)[C@H](CCCCN)NC1=O)C(=O)N[C@@H](CCCCN)C(=O)N[C@@H](CC(C)C)C(=O)N[C@@H](CC(C)C)C(=O)N2 | – | – | 4 h, pH 7.4, room temperature | – | minimal haemolytic concentration | 2000 µg/mL
CC[C@H](C)[C@H](NC(=O)[C@H](CCCCN)NC(=O)[C@H](CCCCN)NC(=O)[C@H](Cc1ccccc1)NC(=O)[C@H](CC(C)C)NC(=O)[C@@H](CCCCN)NC(=O)[C@H](Cc1c[nH]c2ccccc12)NC(=O)[C@H](CCCCN)NC(C)=O)C(=O)NCC(=O)N[C@@H](C)C(=O)N[C@H](C(=O)N[C@@H](CC(C)C)C(=O)N[C@@H](CCCCN)C(=O)N[C@H](CCCCN)C(=O)N[C@@H](CC(C)C)C(N)=O)C(C)C | – | – | 64 µM, 1 h, 37 °C | baseline: Triton X-100 | hemolysis | < 6%
